Published values collected from several papers.
Protocols differ between the studies behind these lines.
Organism: Schistosoma mansoni

For `CN1CCN(c2ccc(-c3ccc4c(Nc5ncccn5)cnnc4c3)cc2)CC1`, “phenotypic severity score” read 0 (adult worms; 10 µM, 5 h; direction not given).
`CC1(CNc2nc(-c3cccs3)nc(Cl)c2-c2c(F)cc(N)cc2F)COC1` has an EC50 of less than 0.3 µM (worm motility; adult worms ex vivo; 24 h).
`CC1(C(F)F)NC(=O)N(c2ccc(F)c(C(F)(F)F)c2)C1=O` (centres unmarked) — result for “worm burden reduction”: 92% (NMRI mice, infected; oral, 100 mg/kg single dose, 21 days post-treatment, treated day 49 post-infection).
`CC1=C(Cn2cc(CN3CCN(C(=O)OC(C)(C)C)CC3)nn2)C(=O)c2ccccc2C1=O` gave a killing of 41.6% (adult worms; 10 µM, 24 h).
`Nc1cc(F)c(-c2c(Cl)nc(-c3cccs3)nc2NCC2CCC2)c(F)c1` gave an EC50 of less than 0.3 µM (worm motility; adult worms ex vivo; 24 h).
`CC1=C(Cn2cc(CN(Cc3ccccc3)Cc3ccccc3)nn2)C(=O)c2ccccc2C1=O` gave a killing of 46.5% (adult worms; 25 µM, 48 h).
`CC1(C(F)(F)F)NC(=O)N(c2ccc(F)c(C(F)(F)F)c2)C1=O` (centres unmarked) — result for “worm burden reduction”: 81% (adult, infected mice; oral, 50 mg/kg single dose).
`CC1=C(Cn2cnc([N+](=O)[O-])n2)C(=O)c2ccccc2C1=O` gave an IC50 of 7.3 µM (viability; adult worms; 72 h).
For `CC1(C)NC(=O)N(c2ccc(F)c(C(F)(F)F)c2F)C1=O`, “worm burden reduction” read 23% (juvenile, infected mice; oral, 100 mg/kg single dose).
`COc1ccc(Nc2cnnc3ccc(-c4ccc(S(=O)(=O)N5CCN(C)CC5)cc4)cc23)cc1Cl`: “phenotypic severity score” 1 (adult worms; 10 µM, 1 h; direction not given).
`Fc1cc(F)c(-c2c(Cl)nc(-c3cccs3)nc2N2CCCC2)c(F)c1` has an EC50 of greater than 5 µM (worm motility; adult worms ex vivo; 24 h).
Under “phenotypic severity score”, `Cc1ccc(Nc2cnnc3ccc(-c4ccc(N5CCCN(C)CC5)cc4)cc23)cn1` is recorded as 1 (adult worms; 10 µM, 5 h; direction not given).
`CC1=C(Cn2cc(CN3CCNCC3)nn2)C(=O)c2ccccc2C1=O` gave a killing of 62.5% (adult worms; 25 µM, 72 h).
Under “worm burden reduction”, `CC1(C)NC(=O)N(c2ccc(F)c(CC(F)(F)F)c2)C1=O` is recorded as 100% (adult, infected mice; 10 mg/kg).
For `Nc1nc(-c2cccs2)nc(Cl)c1-c1c(F)cc(F)cc1F`, the EC50 was greater than 5 µM (worm motility; adult worms ex vivo; 24 h).
`CC1=C(Cc2cn(CCN3CCNCC3)nn2)C(=O)c2ccccc2C1=O` gave a killing of 48.4% (adult worms; 25 µM, 24 h).
With `CC(C)[C@@H](C)Nc1nc(-c2cccs2)nc(Cl)c1-c1cc(F)cc(F)c1` the EC50 was 5 µM (worm motility; adult worms ex vivo; 24 h).
For `COc1ccc(Nc2cnnc3ccc(-c4ccc(N5CCN(C)CC5)cc4)cc23)cc1`, “phenotypic severity score” read 4 (adult worms; 10 µM, 48 h; direction not given).
`CC1=C(Cn2cc(COC3COC3)nn2)C(=O)c2ccccc2C1=O` gave a killing of 46.9% (adult worms; 10 µM, 24 h).
For `CN1CCN(S(=O)(=O)c2ccc(-c3ccc4nncc(Nc5ncccn5)c4c3)cc2)CC1`, “phenotypic severity score” read 0 (adult worms; 10 µM, 48 h; direction not given).
The killing of `CC1=C(Cn2cc(CBr)nn2)C(=O)c2ccccc2C1=O` is reported as 44.9% (adult worms; 10 µM, 72 h).
For `CC1(CNc2nc(-c3cccs3)nc(Cl)c2-c2c(F)cc(F)cc2F)CC1`, the EC50 was 0.5 µM (worm motility; adult worms ex vivo; 24 h).
Under “phenotypic severity score”, `CN1CCN(S(=O)(=O)c2ccc(-c3ccc4c(Nc5ncccn5)cnnc4c3)cc2)CC1` is recorded as 0 (adult worms; 10 µM, 48 h; direction not given).
`CC1(C)NC(=O)N(c2ccc(F)c(Br)c2)C1=O`: “worm burden reduction” 89% (NMRI mice, infected; oral, 100 mg/kg single dose, 21 days post-treatment, treated day 49 post-infection).
`Fc1cc(F)c(-c2c(Cl)nc(-c3cccs3)nc2N2CCCCC2)c(F)c1` gave an EC50 of 5 µM (worm motility; adult worms ex vivo; 24 h).
For `CN1CCN(c2ccc(-c3ccc4nncc(Nc5ncccn5)c4c3)cc2)CC1`, “phenotypic severity score” read 0 (adult worms; 10 µM, 1 h; direction not given).
`CC1=C(Cc2cn(CCN3CCC(=O)CC3)nn2)C(=O)c2ccccc2C1=O` has a killing of 49% (adult worms; 10 µM, 72 h).
`COc1ccc(Nc2cnnc3cc(-c4cnc(N5CCN(C)CC5)nc4)ccc23)cc1`: “phenotypic severity score” 0 (adult worms; 10 µM, 48 h; direction not given).
With `C#Cc1cc(F)c(-c2c(Cl)nc(-c3cccs3)nc2NCC2(C)N=N2)c(F)c1` the EC50 was less than 0.3 µM (worm motility; adult worms ex vivo; 24 h).

A few entries again:
For `CN1CCN(c2ccc(-c3ccc4c(Nc5ncccn5)cnnc4c3)cc2)CC1`, “phenotypic severity score” read 0 (adult worms; 10 µM, 5 h; direction not given).
`CC1=C(Cc2cn(CCN3CCNCC3)nn2)C(=O)c2ccccc2C1=O` gave a killing of 48.4% (adult worms; 25 µM, 24 h).
`CC1(C)NC(=O)N(c2ccc(F)c(Br)c2)C1=O`: “worm burden reduction” 89% (NMRI mice, infected; oral, 100 mg/kg single dose, 21 days post-treatment, treated day 49 post-infection).
`CC1=C(Cn2cc(CN3CCNCC3)nn2)C(=O)c2ccccc2C1=O` gave a killing of 62.5% (adult worms; 25 µM, 72 h).
